Experimental data of several laboratories.
A part holds a random share of what one study measured. Changes are numbered by the printed parent chain.

Set 1
Target: inorganic phosphate, free oxyanion
Technique: microfluidic competitive inhibition
Matrix: in vitro, cell-free expressed
Concentration: not given
Notes: derived from inhibition constants, unchanged parent 615000 nM
Direction: lower = stronger binding
Starting sequence: PafA, mature enzyme, eGFP fusion (Elizabethkingia meningoseptica, UniProt Q9KJX5); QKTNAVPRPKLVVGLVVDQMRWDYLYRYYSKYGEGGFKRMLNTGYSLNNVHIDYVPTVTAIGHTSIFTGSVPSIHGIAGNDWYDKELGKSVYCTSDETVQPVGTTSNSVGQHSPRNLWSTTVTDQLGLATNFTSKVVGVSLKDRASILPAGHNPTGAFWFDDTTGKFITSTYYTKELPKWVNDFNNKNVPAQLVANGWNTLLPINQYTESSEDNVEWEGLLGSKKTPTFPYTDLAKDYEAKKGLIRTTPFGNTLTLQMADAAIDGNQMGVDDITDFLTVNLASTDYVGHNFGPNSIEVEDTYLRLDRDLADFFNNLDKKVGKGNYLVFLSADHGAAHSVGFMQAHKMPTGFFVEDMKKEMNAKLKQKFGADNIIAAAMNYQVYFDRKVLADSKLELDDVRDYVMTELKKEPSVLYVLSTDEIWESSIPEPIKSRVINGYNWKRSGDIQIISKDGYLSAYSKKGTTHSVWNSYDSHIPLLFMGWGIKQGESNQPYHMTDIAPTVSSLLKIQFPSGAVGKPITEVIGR
`L316V`: “phosphate dissociation constant” 561 µM.
`L316G`: “phosphate dissociation constant” 672 µM.
`N131V`: “phosphate dissociation constant” 609 µM.
`S210G` — result for “phosphate dissociation constant”: 492 µM.
For `N294V`, “phosphate dissociation constant” read 442 µM.
For `N266V`, “phosphate dissociation constant” read 657 µM.
`R304G` — result for “phosphate dissociation constant”: 439 µM.
Under “phosphate dissociation constant”, `L479V` is recorded as 680 µM.
`D275V` — result for “phosphate dissociation constant”: 499 µM.
For `M268V`, “phosphate dissociation constant” read 571 µM.
`G243V` — result for “phosphate dissociation constant”: 533 µM.
Under “phosphate dissociation constant”, `P149V` is recorded as 195 µM.
`H51G` — result for “phosphate dissociation constant”: 434 µM.
`L193G`: “phosphate dissociation constant” 560 µM.
For `P101V`, “phosphate dissociation constant” read 623 µM.
For `W469G`, “phosphate dissociation constant” read 120 µM.
For `Y26V`, “phosphate dissociation constant” read 561 µM.
`T155G` — result for “phosphate dissociation constant”: 548 µM.
Under “phosphate dissociation constant”, `T502V` is recorded as 347 µM.
`P411V`: “phosphate dissociation constant” 671 µM.
Under “phosphate dissociation constant”, `Q492G` is recorded as 542 µM.
`V339G` — result for “phosphate dissociation constant”: 384 µM.
`M342G` — result for “phosphate dissociation constant”: 408 µM.

Set 2
Target: ABI1, truncated, D143A, DHFR fusion (Arabidopsis thaliana)
Technique: DHFR PCA, deep sequencing
Matrix: yeast
Notes: methotrexate growth selection, single substitutions
Added: (+)-ABA 4.8 µM
Reference: wild-type fitted maximum
Direction: higher = stronger binding
Starting sequence: PYL1, truncated, DHFR fusion (Arabidopsis thaliana); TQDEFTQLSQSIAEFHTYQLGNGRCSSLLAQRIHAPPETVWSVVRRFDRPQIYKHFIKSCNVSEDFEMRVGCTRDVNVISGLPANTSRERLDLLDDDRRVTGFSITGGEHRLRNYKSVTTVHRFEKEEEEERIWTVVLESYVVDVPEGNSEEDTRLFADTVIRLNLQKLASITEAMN; partner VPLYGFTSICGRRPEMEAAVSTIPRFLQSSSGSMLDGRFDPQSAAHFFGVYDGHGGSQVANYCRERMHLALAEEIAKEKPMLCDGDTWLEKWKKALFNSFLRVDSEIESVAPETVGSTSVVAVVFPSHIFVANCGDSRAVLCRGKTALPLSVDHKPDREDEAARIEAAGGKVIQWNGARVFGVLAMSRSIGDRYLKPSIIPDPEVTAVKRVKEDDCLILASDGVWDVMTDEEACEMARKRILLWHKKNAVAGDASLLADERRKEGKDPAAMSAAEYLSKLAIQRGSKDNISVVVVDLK
Under “relative binding score”, `R113Y` is recorded as 36.8%.
For `T17N`, “relative binding score” read 35.5%.
Under “relative binding score”, `E38T` is recorded as 33.3%.
Under “relative binding score”, `E129H` is recorded as 74.8%.
`F56A` — result for “relative binding score”: -4.95%.
`F15S` — result for “relative binding score”: 12.1%.
Under “relative binding score”, `E109A` is recorded as 39%.
`G81T`: “relative binding score” 9.29%.

Set 3
Target: CRIPT, C-terminal peptide
Technique: DHFR complementation, deep sequencing
Matrix: yeast
Notes: single substitutions, model-inferred values
Reference: wild type
Direction: higher = weaker binding
Starting sequence: ERBIN, PDZ domain 1 (human); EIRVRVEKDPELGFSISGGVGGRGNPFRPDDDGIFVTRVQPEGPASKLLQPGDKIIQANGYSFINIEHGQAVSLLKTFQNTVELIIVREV; partner TKNYKQTSV
`Q79M` — result for “binding free energy change”: 0.0445 kcal/mol.
`T81K` — result for “binding free energy change”: 0.0685 kcal/mol.
For `R23W`, “binding free energy change” read -0.549 kcal/mol.
`N59D` — result for “binding free energy change”: 0.12 kcal/mol.
`E11M`: “binding free energy change” -0.929 kcal/mol.
`L49D`: “binding free energy change” 0.746 kcal/mol.
`I55C` — result for “binding free energy change”: 0.542 kcal/mol.
Under “binding free energy change”, `E7I` is recorded as 0.0699 kcal/mol.

Set 4
Target: CCND2, cyclin fold, Cln2 fusion (human)
Technique: yeast growth competition, sequencing
Matrix: yeast
Notes: weak parent motif
Reference: not given
Direction: higher = stronger binding
Starting sequence: viral docking peptide; KGVKRKLFAEDSS; partner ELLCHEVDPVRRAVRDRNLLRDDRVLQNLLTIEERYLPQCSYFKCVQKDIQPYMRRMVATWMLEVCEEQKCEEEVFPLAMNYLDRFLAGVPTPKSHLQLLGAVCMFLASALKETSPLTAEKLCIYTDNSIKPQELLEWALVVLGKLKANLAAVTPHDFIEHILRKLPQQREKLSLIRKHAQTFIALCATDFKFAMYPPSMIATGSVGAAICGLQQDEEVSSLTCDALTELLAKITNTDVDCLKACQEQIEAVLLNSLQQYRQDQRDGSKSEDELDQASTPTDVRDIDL
For `R5F`, “normalised enrichment score” read -0.0865.
For `G2V`, “normalised enrichment score” read 0.265.
Under “normalised enrichment score”, `K4R` is recorded as 0.385.
Under “normalised enrichment score”, `L7I` is recorded as 0.368.

Set 5
Target: Prothrombin, mature alpha-thrombin (F2, Homo sapiens, UniProt P00734)
Technique: aptamer microarray, sandwich
Molecule type: DNA with 2'F-ANA
Matrix: in vitro
Concentration: 200 nM
Notes: whole 15-mer aptamer, many near background
Added: Cy3 exosite-II aptamer, 400 nM
Direction: higher = stronger binding
Strand: GGTTGGTGTGGTTGG
`2'F-ANA at 1 2 3 4 5 9 11 12 13 15`: “mean fluorescence intensity” 71.5 a.u.
`2'F-ANA at 1 2 4 6 10 12 13 14 15`: “mean fluorescence intensity” 69.1 a.u.
`2'F-ANA at 1 2 3 7 9 11 13 15`: “mean fluorescence intensity” 153 a.u.
For `2'F-ANA at 2 4 5 6 10 12 13 14`, “mean fluorescence intensity” read 50.7 a.u.
For `2'F-ANA at 5 8 10 11 13 14`, “mean fluorescence intensity” read 52.8 a.u.
For `2'F-ANA at 4 8 11 13 14 15`, “mean fluorescence intensity” read 91.2 a.u.
For `2'F-ANA at 4 6 9 10 13 14`, “mean fluorescence intensity” read 60.2 a.u.
For `2'F-ANA at 6 9 11 12`, “mean fluorescence intensity” read 645 a.u.

Further values, each from its own experiment
Target: Forkhead transcription factor HCM1, DNA-binding domain (HCM1, Saccharomyces cerevisiae, UniProt P25364, residues 41-213)
Technique: SELEX-seq
Molecule type: double-stranded DNA, one strand shown
Matrix: in vitro
Concentration: not given
Notes: 7-bp core, flanks averaged
Reference: best-binding core
Direction: lower = stronger binding
One construct used (chain): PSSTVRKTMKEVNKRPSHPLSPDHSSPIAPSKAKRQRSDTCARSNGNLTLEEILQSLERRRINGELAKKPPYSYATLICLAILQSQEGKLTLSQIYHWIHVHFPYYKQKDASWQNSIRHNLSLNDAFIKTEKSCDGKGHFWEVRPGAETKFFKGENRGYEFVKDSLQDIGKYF
`AATAATA`: “relative binding free energy” 2.07 ddG/RT.
`CAATACA` — result for “relative binding free energy”: 1.45 ddG/RT.

A few entries again (set 3):
`L49D`: “binding free energy change” 0.746 kcal/mol.
Under “binding free energy change”, `E7I` is recorded as 0.0699 kcal/mol.
For `R23W`, “binding free energy change” read -0.549 kcal/mol.
`Q79M` — result for “binding free energy change”: 0.0445 kcal/mol.
`E11M`: “binding free energy change” -0.929 kcal/mol.
`I55C` — result for “binding free energy change”: 0.542 kcal/mol.
`N59D` — result for “binding free energy change”: 0.12 kcal/mol.
